Published values from different studies.
Lines come from different studies, so protocols differ. Values joined by “and” are separate records of one study, mostly repeats; a detail may differ. ± marks the error that the study gave.

Structure (SMILES) | tested on | test | test system | setting | scale | endpoint | result
CC[C@H](C)[C@H](NC(=O)[C@H](CCCCN)NC(=O)[C@H](CCCCN)NC(=O)[C@H](Cc1ccccc1)NC(=O)[C@@H](NC(=O)[C@@H](NC(=O)[C@H](CCCNC(=N)N)NC(=O)[C@H](Cc1ccccc1)NC(=O)[C@@H](NC(=O)[C@H](CCCCN)NC(=O)[C@H](CCCCN)NC(=O)[C@@H](N)CCSC)[C@@H](C)CC)C(C)C)[C@@H](C)CC)C(=O)N[C@@H](CC(C)C)C(=O)N[C@@H](CCCCN)C(=O)N[C@@H](CCCNC(=N)N)C(=O)N[C@@H](CC(C)C)C(=O)N[C@H](C(=O)N[C@H](C(=O)O)C(C)C)[C@@H](C)CC | A549 | CCK-8 |  | 64 µg/mL, 24 h |  | viability | 20.6%
Cc1ccc2[nH]c3c(c2c1)CCCC3NCCc1ccc(O)cc1 (centres unmarked) | A549 |  |  | 50 µM, 23 h |  | non-viable cells | 5.9 ± 7.1%
C[n+]1ccc(-c2cc[n+](C)cc2)cc1 | A549 |  |  | concentration not given | baseline: untreated control | viability | 35.4% and 42.7% and 33.2% and 25.1% and 27.3%
COc1ccc(-n2c(SCCCN3C(=O)c4cccc5cccc(c45)C3=O)nnc2-c2ccncc2)cc1 | human coronavirus OC43 | virus-induced cell killing | MRC-5 | screen |  | maximum inhibition | 12.7%
COc1ccc([C@@]23Oc4cc(OC)cc(OC)c4[C@@]24N=C(C2CC2)N[C@@]4(O)[C@H](C(=O)N(C)OC)[C@H]3c2ccccc2)cc1 | A549 |  |  | concentration not given, 24 h |  | viability | 50%
Br.O=[N+]([O-])c1nccn1CC(O)CNCCBr (centres unmarked) | A549 |  |  | 4 h anoxic | baseline: oxic IC50 over anoxic IC50 | hypoxic cytotoxicity ratio | > 3.4
CC(C)C[C@H](NC(=O)[C@H](C)NC(=O)[C@@H](NC(=O)[C@H](CCCNC(=N)N)NC(=O)[C@H](CC(C)C)NC(=O)[C@H](Cc1c[nH]c2ccccc12)NC(=O)[C@@H]1CCCN1C(=O)[C@@H](N)CCCCN)C(C)C)C(=O)N[C@@H](CS)C(=O)N1CCC[C@H]1C(=O)NCC(=O)O | A549 | WST-1 |  | 64 µM, 24 h |  | viability | 87.9% and 94.2% and 87.3%
Fc1ccc2[nH]c3c(c2c1)CCCC3NCCc1ccc(Br)cc1 (centres unmarked) | A549 |  |  | 50 µM, 23 h |  | non-viable cells | 10.8 ± 9.6%
O=C(O)C(=O)O.[NH-][C@@H]1CCCC[C@H]1[NH-].[Pt+2] | human coronavirus OC43 | virus-induced cell killing | MRC-5 | screen |  | maximum inhibition | 5.69%
Cc1ccc2[nH]c3c(c2c1)CCCC3NCCc1ccccc1 (centres unmarked) | A549 |  |  | 50 µM, 23 h |  | non-viable cells | 17.3 ± 14.7%
CC(C)(C)NCC(O)COc1cccc2c1CCC(=O)N2 (centres unmarked) | A549 | MTT |  | 72 h |  | CC50 | 133 to 400 µM

A few entries again:
Structure (SMILES) | tested on | test | test system | setting | scale | endpoint | result
Fc1ccc2[nH]c3c(c2c1)CCCC3NCCc1ccc(Br)cc1 (centres unmarked) | A549 |  |  | 50 µM, 23 h |  | non-viable cells | 10.8 ± 9.6%
C[n+]1ccc(-c2cc[n+](C)cc2)cc1 | A549 |  |  | concentration not given | baseline: untreated control | viability | 35.4% and 42.7% and 33.2% and 25.1% and 27.3%
